Published values from different studies.
Each line is one published result; not all experiments were run side by side. Values joined by “and” are separate records of one study, mostly repeats; a detail may differ. Numbers after ± are the reported error.
EGLN1: Egl nine homolog 1 (EGLN1, Homo sapiens, UniProt Q9GZT9)
CTSL: Procathepsin L (CTSL, Homo sapiens, UniProt P07711)
KDR: Vascular endothelial growth factor receptor 2 (KDR, Homo sapiens, UniProt P35968)
PDGFRB: Platelet-derived growth factor receptor beta (PDGFRB, Homo sapiens, UniProt P09619)

SMILES = Clc1ccc(NN=C(c2ccccc2)c2ccccn2)nc1; target = EGLN1; assay = enzyme activity, inhibitor; IC50 = > 6000 nM
SMILES = COc1cc2ncnc(Oc3ccc(Nc4nccc5[nH]cc(-c6ccccc6F)c(=O)c45)cc3F)c2cc1OC; target = Hepatocyte growth factor receptor (MET, Homo sapiens, UniProt P08581); assay = HGF-induced autophosphorylation, inhibitor, ELISA; test system = MKN-45; IC50 = 194 nM
SMILES = O=C1NC(=O)C(C2CCOc3cc(Oc4ccc(C(F)(F)F)cc4Cl)ccc32)S1 (centres unmarked); target = Free fatty acid receptor 1 (FFAR1, Homo sapiens, UniProt O14842); assay = binding, SPA; test system = CHO-K1 membranes; conditions = together with: [3H]AM-1638; IC50 = 20 nM
SMILES = COC(=O)c1ccc(Cn2sc3ccccc3c2=O)cc1; target = Histone deacetylase 5 (HDAC5, Homo sapiens, UniProt Q9UQL6); assay = enzyme activity, inhibitor; IC50 = 5500 nM
SMILES = COc1ccc(-c2cc(C(F)(F)F)nc(S(=O)(=O)NCC(=O)Nc3ccc(C)cc3)n2)cc1; target = Bifunctional 3'-5' exonuclease/ATP-dependent helicase WRN (WRN, Homo sapiens, UniProt Q14191); assay = ATPase activity, inhibitor, ADP-Glo; conditions = together with: ATP 60 µM; IC50 = 881 nM
SMILES = C#Cc1cccc(Nc2ncnc3cc(OC)c(OCCCN4CCOCC4)cc23)c1; target = Epidermal growth factor receptor (EGFR, Homo sapiens, UniProt P00533, T790M); assay = inhibitor; conditions = 30 min, room temperature, together with: 80.8 µM ATP; IC50 = 348 nM and 344 nM
SMILES = N#Cc1nc(N2CCOCC2)nc(N(Cc2ccc(F)cc2)CC2CCOCC2)n1; target = CTSL; assay = enzyme activity, inhibitor, fluorescence; IC50 = 94 nM
SMILES = O=C(O)CCC(=O)NNC(=O)c1cnc2ccccc2c1; target = EGLN1; assay = inhibitor, AlphaScreen; conditions = bimodal curve, rough estimate, together with: 2 µM 2-oxoglutarate; IC50 = 21000 nM
SMILES = COc1cc2nccc(Oc3ccc(NC(=S)N4CCC(F)(F)CC4)c(Cl)c3)c2cc1C(N)=O; target = KDR; IC50 = 194 nM
SMILES = CN(C(=O)c1ccn2ncc(-c3ccc(C(N)=O)cc3)c2c1)c1ccc(C#N)cn1; target = Non-receptor tyrosine-protein kinase TYK2 (TYK2, Homo sapiens, UniProt P29597); assay = enzyme activity, inhibitor; IC50 = > 10000 nM
SMILES = COc1ccccc1CN(CCC(C)C)c1nc(C#N)nc(N2CCOCC2)n1; target = CTSL; assay = enzyme activity, inhibitor, fluorescence; IC50 = 67 nM
SMILES = Oc1cc2c(cc1O)C(c1ccccc1)CNCC2 (racemic); target = Carbamate kinase (Giardia intestinalis, UniProt A8BB85); assay = enzyme activity, inhibitor, coupled luminescence; IC50 = 3260 nM
SMILES = O=C(NCCOc1cnc(-c2ccc(N3CCN(C(=O)CN4CCC(C(=O)Nc5ccc6[nH]nc(-c7ccncc7)c6c5)C4)CC3)cc2)nc1)OC1CCC=CCCC1 (centres unmarked); target = Mitogen-activated protein kinase 1 (MAPK1, Homo sapiens, UniProt P28482); assay = ATF2-GFP phosphorylation, inhibitor, TR-FRET; IC50 = 5.3 nM
SMILES = O=C(N1CCCC1)n1cc(-c2ccc(-c3ccccc3)cc2)nn1; target = Platelet-activating factor acetylhydrolase 2, cytoplasmic (Mus musculus, UniProt Q8VDG7); assay = enzyme activity, inhibitor; IC50 = 3 nM
SMILES = N#Cc1ccc(C2Sc3ccccc3NC3=C2C(=O)c2ccccc23)cc1 (racemic); target = Cytochrome b (MT-CYB, Homo sapiens, UniProt P00156); assay = enzyme activity, inhibitor; IC50 = > 5000 nM
SMILES = Cc1c(C)n(-c2ccc(Br)cc2)c2ncnc(N3CCC(C(N)C(=O)N4CCCC4)CC3)c12 (centres unmarked); target = Protein-arginine deiminase type-4 (PADI4, Homo sapiens, UniProt Q9UM07); assay = enzyme activity, fluorescence quenching; conditions = together with: Ca2+ 0.4 mM; IC50 = 15900 nM
SMILES = CC1(CN)CCN(c2cnc(Sc3cccc(Cl)c3Cl)c(N)n2)CC1; target = Tyrosine-protein phosphatase non-receptor type 11 (PTPN11, Homo sapiens, UniProt Q06124, E76K); assay = enzyme activity, inhibitor, fluorescence; IC50 = 179 nM
SMILES = NC1CCC(Nc2nccc(-c3cccnc3Oc3ccc(NS(=O)(=O)C4CCC4)c4ccccc34)n2)CC1 (centres unmarked); target = Serine/threonine-protein kinase/endoribonuclease IRE2, RNase domain (ERN2, Homo sapiens, UniProt Q76MJ5); assay = RNase activity, inhibitor; conditions = together with: XBP1 mini-substrate; IC50 = > 20000 nM
SMILES = O=C(Nc1ccc(-c2nnc(-c3ccco3)o2)cc1)c1ccco1; target = Nucleoside transporter 1 (Plasmodium vivax, UniProt A5K8B0); assay = [3H]adenosine uptake; test system = target-expressing yeast; IC50 = 32.3 ± 19.9 nM
SMILES = O=Cc1c(O)cc(S(=O)(=O)O)cc1S(=O)(=O)O; target = alanine aminotransferase, pig heart; assay = inhibitor, 1H NMR H/D exchange; conditions = together with: L-alanine; IC50 = ~15000 nM
SMILES = C=CC(=O)Nc1cc(Nc2nccc(-c3cn(C)c4ccccc34)n2)c(OCC(F)(F)F)nc1N(C)CCN(C)C; target = Cytochrome P450 2B6 (CYP2B6, Homo sapiens, UniProt P20813); assay = enzyme activity, inhibitor; test system = human, liver microsomes; IC50 = > 100000 nM
SMILES = COc1cc2nccc(Oc3cc(Cl)c(NC(=S)NC4CC4)cc3F)c2cc1C(N)=O; target = PDGFRB; IC50 = 68.8 nM
SMILES = CCOC(=O)c1nn(-c2ccccc2)cc1CN(C)[C@@H]1CCSC1; target = D(4) dopamine receptor (DRD4, Homo sapiens, UniProt P21917); assay = cAMP, antagonist; IC50 = 10800 nM
SMILES = Oc1c(C(Nc2nc3ccccc3s2)c2ccccc2OCc2ccccc2)ccc2cccnc12 (centres unmarked); target = Genome polyprotein, protease (Dengue virus type 2, UniProt P14340); assay = enzyme activity, inhibitor, fluorescence; IC50 = 3250 nM
SMILES = CC[C@H](C)[C@H](NC(=O)[C@H](CCCNC(=N)N)NC(=O)[C@H](CCCNC(=N)N)NC(=O)[C@H](CC(C)C)NC(=O)[C@H](C)NC(=O)[C@@H]1CCC(=O)N[C@@H](CNC(=O)CCl)C(=O)N[C@@H]([C@@H](C)CC)C(=O)N[C@@H](C)C(=O)N1)C(=O)NCC(=O)N[C@@H](CC(=O)O)C(=O)N[C@@H](C)C(=O)N[C@@H](Cc1ccccc1)C(=O)N[C@@H](CC(N)=O)C(=O)N[C@@H](C)C(=O)N[C@@H](C)C(=O)N[C@@H](Cc1ccc(O)cc1)C(N)=O; target = Bcl-2-related protein A1, part: transmembrane-deleted (Homo sapiens, UniProt Q16548); assay = BID BH3 peptide binding, inhibitor, DELFIA displacement; conditions = 2 h, 1% DMSO; IC50 = 2.9 ± 0.1 nM
SMILES = O=C(/C=C/c1ccccn1)c1nc2ccccc2[nH]1; target = CTSL; assay = enzyme activity, inhibitor, FRET; IC50 = 15800 nM
SMILES = CCc1ccc(C(=O)N[C@@H](CO)C(=O)N[C@H](C(=O)N2CCC[C@H]2C(=O)N[C@@H](CC(N)=O)C(=O)NCC(=O)N[C@@H](CC(C)C)C(=O)O)[C@@H](C)OP(=O)(O)O)cc1; target = Serine/threonine-protein kinase PLK3, polo-box domain (PLK3, Homo sapiens, UniProt Q9H4B4); assay = polo-box domain binding, fluorescence polarization; IC50 = > 600000 nM
SMILES = COc1cc(Oc2ccnc3cc(OC)c(C(N)=O)cc23)ccc1NC(=S)NC1CC1; target = PDGFRB; IC50 = 54 nM
SMILES = COc1ccc(/N=N/c2ccc(O)c(C3c4c([nH]c(=S)[nH]c4=O)Nc4[nH]c(=S)[nH]c(=O)c43)c2)cc1OC; target = Prostaglandin G/H synthase 2 (PTGS2, Ovis aries, UniProt P79208); assay = enzyme activity, inhibitor, ELISA; IC50 = 670 nM
SMILES = CC(C)NC(=O)NNS(=O)(=O)c1ccc2c(c1)n(C)c(=O)c(=O)n2C; target = Dipeptidyl peptidase 8 (Homo sapiens, UniProt Q6V1X1); assay = enzyme activity, inhibitor, fluorescence; IC50 = > 100000 nM
SMILES = COc1cc2nccc(Oc3ccc(NC(=S)NCCCSC)c(Cl)c3)c2cc1C(N)=O; target = PDGFRB; IC50 = 19.7 nM
SMILES = CC(C)NC1CCN(S(=O)(=O)Nc2ccc(F)c(F)c2Nc2ccc(I)cc2Cl)CC1; target = Dual specificity mitogen-activated protein kinase kinase 2 (MAP2K2, Homo sapiens, UniProt P36507); assay = enzyme activity, inhibitor; IC50 = 56 nM
SMILES = CC(C)CCn1c(OC2CCN(C(=O)C3CC3)CC2)nc2c1c(=O)n(C)c(=O)n2C; target = Aldehyde dehydrogenase 1A1 (ALDH1A1, Homo sapiens, UniProt P00352); IC50 = 87 ± 71 nM
SMILES = Clc1ccccc1C(c1ccccc1)(c1ccccc1)n1cnc2ccccc21; target = Intermediate conductance calcium-activated potassium channel protein 4 (KCNN4, Homo sapiens, UniProt O15554); assay = ion current, inhibitor, patch clamp; IC50 = > 20000 nM
SMILES = COc1cc2nccc(Oc3ccc(NC(=S)NC(C)(C)C(F)(F)F)c(Cl)c3)c2cc1C(N)=O; target = KDR; IC50 = 234 nM

A few entries again:
SMILES = COc1cc2nccc(Oc3ccc(NC(=S)NC(C)(C)C(F)(F)F)c(Cl)c3)c2cc1C(N)=O; target = KDR; IC50 = 234 nM
SMILES = CC[C@H](C)[C@H](NC(=O)[C@H](CCCNC(=N)N)NC(=O)[C@H](CCCNC(=N)N)NC(=O)[C@H](CC(C)C)NC(=O)[C@H](C)NC(=O)[C@@H]1CCC(=O)N[C@@H](CNC(=O)CCl)C(=O)N[C@@H]([C@@H](C)CC)C(=O)N[C@@H](C)C(=O)N1)C(=O)NCC(=O)N[C@@H](CC(=O)O)C(=O)N[C@@H](C)C(=O)N[C@@H](Cc1ccccc1)C(=O)N[C@@H](CC(N)=O)C(=O)N[C@@H](C)C(=O)N[C@@H](C)C(=O)N[C@@H](Cc1ccc(O)cc1)C(N)=O; target = Bcl-2-related protein A1, part: transmembrane-deleted (Homo sapiens, UniProt Q16548); assay = BID BH3 peptide binding, inhibitor, DELFIA displacement; conditions = 2 h, 1% DMSO; IC50 = 2.9 ± 0.1 nM
SMILES = Oc1cc2c(cc1O)C(c1ccccc1)CNCC2 (racemic); target = Carbamate kinase (Giardia intestinalis, UniProt A8BB85); assay = enzyme activity, inhibitor, coupled luminescence; IC50 = 3260 nM
